# Assay results gathered from unrelated publications.
# Compare with care: the assays were run in different laboratories. Values joined by “and” are separate records of one study, mostly repeats; a detail may differ. ± gives the spread as reported.
# Sequence of UniProt Q9UHD2 (whole entry, looked up): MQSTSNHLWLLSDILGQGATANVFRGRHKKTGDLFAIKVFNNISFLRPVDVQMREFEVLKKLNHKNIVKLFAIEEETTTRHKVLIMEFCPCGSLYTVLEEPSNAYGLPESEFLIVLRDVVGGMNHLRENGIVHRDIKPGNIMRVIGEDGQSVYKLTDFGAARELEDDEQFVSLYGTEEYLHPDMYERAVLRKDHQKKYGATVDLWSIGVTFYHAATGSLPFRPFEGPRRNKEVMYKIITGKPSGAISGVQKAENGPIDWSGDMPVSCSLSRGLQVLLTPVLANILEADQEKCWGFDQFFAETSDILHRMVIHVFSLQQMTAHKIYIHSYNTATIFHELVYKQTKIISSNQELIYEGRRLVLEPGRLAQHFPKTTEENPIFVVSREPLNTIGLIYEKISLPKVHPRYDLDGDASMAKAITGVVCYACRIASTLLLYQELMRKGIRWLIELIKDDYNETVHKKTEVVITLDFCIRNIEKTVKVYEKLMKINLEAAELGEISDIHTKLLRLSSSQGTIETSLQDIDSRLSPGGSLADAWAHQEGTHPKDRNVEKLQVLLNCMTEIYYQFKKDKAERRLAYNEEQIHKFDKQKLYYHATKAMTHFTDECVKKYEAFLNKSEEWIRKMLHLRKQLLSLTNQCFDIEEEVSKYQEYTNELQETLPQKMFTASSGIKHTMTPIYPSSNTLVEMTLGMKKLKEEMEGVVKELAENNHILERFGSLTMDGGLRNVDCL
# Sequence of UniProt Q9H3Y6 (whole entry, looked up): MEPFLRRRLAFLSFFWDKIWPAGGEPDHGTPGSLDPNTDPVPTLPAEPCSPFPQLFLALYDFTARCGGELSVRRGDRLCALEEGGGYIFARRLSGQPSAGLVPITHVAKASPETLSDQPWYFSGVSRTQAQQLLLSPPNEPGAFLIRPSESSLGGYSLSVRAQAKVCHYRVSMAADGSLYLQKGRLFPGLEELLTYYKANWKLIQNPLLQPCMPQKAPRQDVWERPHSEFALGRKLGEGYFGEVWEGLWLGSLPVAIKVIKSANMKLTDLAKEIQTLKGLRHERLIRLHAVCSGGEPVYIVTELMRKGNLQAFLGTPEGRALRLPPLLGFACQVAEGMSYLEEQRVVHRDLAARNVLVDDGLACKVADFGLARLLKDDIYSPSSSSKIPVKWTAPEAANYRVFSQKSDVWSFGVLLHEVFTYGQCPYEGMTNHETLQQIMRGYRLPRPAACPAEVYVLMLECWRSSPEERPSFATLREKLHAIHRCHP
# Sequence of UniProt Q8IVT5 (whole entry, looked up): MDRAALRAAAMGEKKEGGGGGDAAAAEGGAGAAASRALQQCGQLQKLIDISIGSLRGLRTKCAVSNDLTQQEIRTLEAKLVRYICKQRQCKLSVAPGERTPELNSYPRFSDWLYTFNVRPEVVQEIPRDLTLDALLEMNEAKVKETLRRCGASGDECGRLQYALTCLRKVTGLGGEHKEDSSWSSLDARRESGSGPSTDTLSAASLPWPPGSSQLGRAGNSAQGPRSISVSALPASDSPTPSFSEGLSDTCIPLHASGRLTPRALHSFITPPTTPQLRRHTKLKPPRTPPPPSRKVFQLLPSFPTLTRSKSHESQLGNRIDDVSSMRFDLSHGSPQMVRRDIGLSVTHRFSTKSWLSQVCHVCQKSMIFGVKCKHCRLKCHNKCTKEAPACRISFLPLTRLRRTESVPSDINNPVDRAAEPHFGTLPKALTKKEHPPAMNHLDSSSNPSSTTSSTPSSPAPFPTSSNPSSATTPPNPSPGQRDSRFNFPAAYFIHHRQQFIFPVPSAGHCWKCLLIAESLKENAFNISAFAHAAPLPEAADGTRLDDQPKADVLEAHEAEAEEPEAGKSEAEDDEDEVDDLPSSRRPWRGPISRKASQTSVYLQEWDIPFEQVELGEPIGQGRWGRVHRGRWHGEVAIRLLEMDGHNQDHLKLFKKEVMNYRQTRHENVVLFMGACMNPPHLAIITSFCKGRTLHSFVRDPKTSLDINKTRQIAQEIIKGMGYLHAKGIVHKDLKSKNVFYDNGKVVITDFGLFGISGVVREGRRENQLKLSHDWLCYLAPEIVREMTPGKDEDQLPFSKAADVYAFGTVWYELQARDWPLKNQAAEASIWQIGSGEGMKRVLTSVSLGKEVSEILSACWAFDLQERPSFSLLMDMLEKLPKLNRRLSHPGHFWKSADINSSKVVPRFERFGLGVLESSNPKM
SMILES,target or system,test,system,conditions,how to read,endpoint,result
CSCC[C@H](NC(=O)[C@@H](NC(=O)[C@H](CCC(N)=O)NC(=O)[C@H](CO)NC(=O)[C@@H](N)C(C)C)[C@@H](C)O)C(=O)N[C@@H](CCCNC(=N)N)C(=O)N[C@@H](CCC(N)=O)C(=O)N[C@H](C(=O)N[C@@H](C)C(=O)N[C@H](C(=O)N1CCC[C@H]1C(=O)N[C@@H](CC(C)C)C(=O)N[C@@H](CC(C)C)C(=O)N[C@@H](Cc1c[nH]c2ccccc12)C(=O)N[C@@H](Cc1ccccc1)C(=O)N[C@@H](Cc1c[nH]c2ccccc12)C(=O)N[C@H](C(=O)NCC(=O)N[C@@H](CO)C(=O)N[C@@H](CC(C)C)C(=O)NCCOCCOCCOCCOCCOCCOCCOCCOCCOCCOCCOCCOCCC(=O)N[C@@H](CS)C(N)=O)[C@@H](C)O)C(C)C)[C@@H](C)O,HCC1171 lung carcinoma,"cell binding, phage binding, item: output/input phage",,"10 min, 37 °C",baseline: control phage,selectivity ratio,27 ± 3.1
CN(C)[C@H]1C[C@@]23CC[C@@]4(O2)C(=CC[C@]2(C)[C@@H](c5ccc6ccncc6c5)CC[C@H]24)C=C3[C@@H](O)[C@@H]1O,"KSR1 (Homo sapiens, UniProt Q8IVT5)","ATP probe labelling, inhibitor, KiNativ profiling",,0.1 µM,,inhibition,13.9%
CC[C@H](C)[C@H](NC(=O)[C@H](C)NC(=O)CNC(=O)[C@H](Cc1ccccc1)NC(=O)[C@H](CC(N)=O)NC(=O)[C@H](CC(N)=O)NC(=O)[C@H](CO)NC(=O)[C@H](CO)NC(=O)[C@H](Cc1c[nH]cn1)NC(=O)[C@@H](NC(=O)[C@H](CC(C)C)NC(=O)[C@H](Cc1ccccc1)NC(=O)[C@H](CC(N)=O)NC(=O)[C@H](C)NC(=O)[C@H](CC(C)C)NC(=O)[C@H](CCCNC(=N)N)NC(=O)[C@H](CCC(N)=O)NC(=O)[C@@H](NC(=O)[C@H](C)NC(=O)[C@@H]1CSSC[C@H](NC(=O)[C@@H](N)CCCCN)C(=O)N[C@@H](CC(N)=O)C(=O)N[C@@H]([C@@H](C)O)C(=O)N[C@@H](C)C(=O)N[C@@H]([C@@H](C)O)C(=O)N1)[C@@H](C)O)C(C)C)C(=O)N[C@@H](CC(C)C)C(=O)N[C@@H](CO)C(=O)N[C@@H](CO)C(=O)N[C@H](C(=O)N[C@@H](CC(N)=O)C(=O)N[C@H](C(=O)NCC(=O)N[C@@H](CO)C(=O)N[C@@H](CC(N)=O)C(=O)N[C@H](C(=O)N[C@@H](Cc1ccc(O)cc1)C(N)=O)[C@@H](C)O)C(C)C)[C@@H](C)O,INS-1 832/13,cellular ATP,,24 h,,EC50,68 µM
CC(C)C12OC1C1OC13C1(C)CCC4=C(COC4=O)C1CC1OC13C2OC(=O)CCC(=O)OC1OC(CO)C(O)C(O)C1O (centres unmarked),primary mammary epithelial cells,"cell viability, XTT",,47 h,,IC50,2.56 µM
CN(C)C(=O)[C@@H](NC(=O)c1cc(-c2ccnn2C)ccc1-c1ccc(C(F)(F)F)cc1)c1cccc(C(F)(F)F)c1,"NKL effector, Ba/F3-ULBP1 target","NKG2D-mediated cell killing, inhibitor",,,,IC50,> 20 µM
N#Cc1cccc(-c2ccc(=O)n(Cc3cccc(-c4ncc(OCC5CCN(CC(=O)N6CCN(c7ccc8c(c7)C(=O)N(C7CCC(=O)NC7=O)C8=O)CC6)CC5)cn4)c3)n2)c1 (centres unmarked),EBC-1,"label-free proteomics, item: IMA1",,concentration not given,baseline: control,protein level fold change,-3.37
COc1ccccc1-c1n[nH]c2nc(NC3CCN(C(=O)Cc4ccc(F)cc4F)CC3)ncc12,,"bead binding, competition bead pull-down, item: LINJ.26.0290",Leishmania donovani extract,10 µM,baseline: vehicle,relative abundance,1.23
CC[C@H](C)[C@H](NC(=O)[C@H](CO)NC(=O)[C@H](Cc1ccc(O)cc1)NC(=O)[C@H](Cc1ccc(O)cc1)NC(=O)[C@H](CC(N)=O)NC(=O)CNC(=O)[C@H](CO)NC(=O)[C@H](Cc1ccc(O)cc1)NC(=O)[C@H](CO)NC(=O)[C@H](CO)NC(=O)[C@H](CC(N)=O)NC(=O)COCCOCCNC(=O)CN1CCN(CC(=O)O)CCN(CC(=O)O)CCN(CC(=O)O)CC1)C(=O)N[C@@H](CC(C)C)C(N)=O [copper-64 labelled],,dynamic PET,"KPC mouse Ptf1a-CreER tdTomato, pancreas","intravenous, 4.6 MBq/mouse, 0.6 min, 84 d after tamoxifen",,tissue uptake,10.9 %ID/mL
C#CCN1C(=O)C(CC#C)(C(=O)OCC)Oc2ccccc21 (centres unmarked),L02,"cell growth or viability, CCK-8",,"25 µM, 72 h",,inhibition,0.67%
O=C(O)c1ccc(-c2nc(-c3ccccc3Cl)c3sccn23)cc1,HEL,"flow cytometry, item: surface CD71",,0.1 mM,higher = more expression,mean fluorescence intensity,52900 a.u.
CC(C)[C@H](NC(=O)[C@H](CCCNC(=N)N)NC(=O)[C@@H]1CCCN1C(=O)[C@@H](NC(=O)[C@H](C)NC(=O)[C@H](Cc1ccc(O)cc1)NC(=O)[C@H](CCC(N)=O)NC(=O)[C@H](CCCCN)NC(=O)[C@H](CCCNC(=N)N)NC(=O)[C@@H]1CCCN1C(=O)[C@H](CCC(=O)O)NC(=O)[C@@H](NC(=O)[C@H](C)N)[C@@H](C)O)[C@@H](C)O)C(=O)N[C@@H](Cc1ccccc1)C(=O)N[C@@H](Cc1c[nH]c2ccccc12)C(=O)N[C@H](C(=O)N[C@@H](CC(=O)O)C(=O)N[C@@H](C)C(=O)N1CCC[C@H]1C(=O)NCC(=O)NCCOCCOCCOCCOCCOCCOCCOCCOCCOCCOCCOCCOCCC(=O)N[C@@H](CS)C(N)=O)[C@@H](C)O,H2009,phage binding,,"10 min, 37 °C",baseline: control phage,selectivity ratio,68 ± 21
CC(C)(C)C(=O)OCOP(=O)(OCOC(=O)C(C)(C)C)C1CCCN(O)C1=O (centres unmarked),HT-29,,,,,CC50,> 100 µM
CC(=O)NCSC[C@H](NC(=O)[C@@H]1CCCN1C(=O)[C@H](C)NC(=O)[C@@H](NC(=O)CNC(=O)[C@@H](NC(=O)[C@H](Cc1c[nH]c2ccccc12)NC(=O)[C@H](C)NC(=O)CNC(=O)[C@H](CO)NC(=O)[C@H](C)NC(=O)[C@@H]1CCCN1C(=O)[C@H](Cc1c[nH]c2ccccc12)NC(=O)[C@H](C)NC(=O)[C@H](C)NC(=O)[C@@H](N)Cc1ccc(O)cc1)[C@@H](C)O)[C@@H](C)O)C(=O)N[C@@H](CO)C(=O)N[C@@H](C)C(=O)NCC(=O)N[C@H](C(=O)NCCOCCOCCOCCOCCOCCOCCOCCOCCOCCOCCOCCOCCC(=O)N[C@@H](CS)C(N)=O)[C@@H](C)O,HCC366 lung adenosquamous carcinoma,"cell binding, phage binding, item: output/input phage",,"10 min, 37 °C",baseline: control phage,selectivity ratio,19 ± 12
Cc1cc(Oc2nc(N3CC[C@@H](c4ccncc4)C3)ncc2F)[nH]n1,J82,cell proliferation,bladder cancer,,,IC50,95.5 µM
CS(C)(=O)=Nc1ccc(-c2ccc(-c3nc4cc(O[C@@H]5CO[C@H]6[C@@H]5OC[C@H]6O)[nH]c4cc3F)cc2)cc1,"TBK1 (Homo sapiens, UniProt Q9UHD2)","enzyme activity, inhibitor",,10 µM,,inhibition,2%
CC(C)C[C@H](NC(=O)[C@H](CC(=O)O)NC(=O)CNC(=O)[C@@H](N)CCCNC(=N)N)C(=O)N[C@@H](C)C(=O)N[C@H](C(=O)N[C@@H](CC(C)C)C(=O)N[C@@H](CCCNC(=N)N)C(=O)N[C@@H](CCC(N)=O)C(=O)N[C@@H](CC(C)C)C(=O)N[C@@H](C)C(=O)N[C@@H](CCC(N)=O)C(=O)N[C@@H](CCC(=O)O)C(=O)N[C@@H](CC(=O)O)C(=O)NCC(=O)N[C@H](C(=O)N[C@H](C(=O)NCC(=O)N[C@H](C(=O)N[C@@H](CCCNC(=N)N)C(=O)NCCOCCOCCOCCOCCOCCOCCOCCOCCOCCOCCOCCOCCC(=O)N[C@@H](CS)C(N)=O)C(C)C)C(C)C)C(C)C)[C@@H](C)O,H1993,phage binding,,"10 min, 37 °C",baseline: control phage,selectivity ratio,37 ± 7.9
O=C(C[Se]C(=O)c1ccco1)Nc1cccc(C(F)(F)F)c1,NCI60 NSCLC subpanel mean,cell growth,,,,TGI,7.86 µM
CC1OC2OC3C4=C(OC3(C)C12O)C(=O)c1c(O)cccc1C4=O (centres unmarked),HT-29,SRB,,"10 µg/mL, 48 h",negative values mean cell killing,growth percent,-32%
COc1ccc(NC(=O)c2ccc3[nH]c(-c4ccc(N(C)C)cc4)nc3c2)cn1,HCT116,IncuCyte,,"concentration not given, 48 (unit not given)",,PI-positive cells,296 count and 233 count and 206 count
N[C@H](C(=O)N1CCCC1)C1CCN(c2nccc3c(-c4ncc(Cl)cc4Cl)cccc23)CC1,human neutrophils,"protein citrullination, inhibitor, flow cytometry, item: citrullinated histone H3",,"10 µM, with: ionomycin",,inhibition,94.7% and 92.7% and 92.8% and 93.8%
CC(C)=CCc1c(O)cc2c(c1O)C(=O)CC(c1ccc(O)cc1)O2 (centres unmarked),HeLa,"cell growth or viability, MTT",,"1.563 µM, 48 h",,inhibition,2.4%
CC(C)CC(O)(CC(C)C)c1cn(C(=O)N2CCCC2)nn1,mouse T-cells,"SILAC proteomics, item: Paip2",,"1 nM, 6 h, single peptides, unit not given",baseline: DMSO,protein level,0.7 and 0.9 and 1.11
CC(C)C12OC1C1OC13C1(C)CCC4=C(COC4=O)C1CC1OC13C2OC(=O)CCCOC1OC(CO)C(O)C(O)C1O (centres unmarked),primary renal proximal tubule cells,"cell viability, XTT",,47 h,,IC50,5.94 µM
COc1ccccc1-c1ccncc1C(=O)Nc1nnc(OCc2ccc(Cl)cc2)s1,RPE-1 BRCA1 WT parental,,,"0.06 µM, run 2",baseline: untreated,colony survival,81.6%
C=CCN1C(=O)C(CC=C)(C(=O)OCC)Oc2cc(F)ccc21 (centres unmarked),L02,"cell growth or viability, CCK-8",,"3.13 µM, 72 h",,inhibition,0.15%
O=C1NC2(CC2)COc2ncc(F)cc2[C@H]2COCCN2c2ccn3ncc1c3n2,,,"Sprague-Dawley rat, male, serum","oral, 5 mg/kg/day, end of treatment, 4-week subacute toxicity",,serum triglycerides,0.35 ± 0.13 mmol/L
CC(C)[C@H]1NC(=O)C[C@H]2/C=C/CCSSC[C@@H](NC1=O)C(=O)N[C@H](Cc1cccc3ccccc13)C(=O)NCC(=O)O2,"SRMS (Homo sapiens, UniProt Q9H3Y6)","enzyme activity, inhibitor",,10 µM,,inhibition,-1.7%
CC[C@H](C)[C@H](NC(=O)CNC(=O)[C@H](Cc1ccc(O)cc1)NC(=O)[C@H](CO)NC(=O)[C@H](Cc1ccc(O)cc1)NC(=O)[C@@H](NC(=O)[C@H](CC(=O)O)NC(=O)[C@H](CO)NC(=O)[C@H](CCC(N)=O)NC(=O)[C@H](Cc1ccccc1)NC(=O)[C@H](CO)NC(=O)[C@H](Cc1ccccc1)NC(=O)[C@@H]1CCCN1C(=O)[C@H](CC(N)=O)NC(=O)[C@H](CC(N)=O)NC(=O)[C@H](CC(=O)O)NC(=O)[C@H](CCC(N)=O)NC(=O)[C@@H]1CCCN1C(=O)[C@H](CCCNC(=N)N)NC(=O)[C@H](CCCNC(=N)N)NC(=O)[C@H](CCCNC(=N)N)NC(=O)[C@H](CCC(N)=O)NC(=O)[C@H](CCCNC(=N)N)NC(=O)[C@H](CCCNC(=N)N)NC(=O)[C@H](CCCCN)NC(=O)[C@H](CCCCN)NC(=O)[C@H](CCCNC(=N)N)NC(=O)CN)C(C)C)C(=O)N[C@H](C(=O)N[C@@H](CC(C)C)C(N)=O)C(C)C,MCF7,"immunoblot densitometry, item: phospho-c-Raf Ser338",,"5 µM, 48 h, unit not given",baseline: 0 µM,phospho-c-Raf level,0.58 and 0.684
NC(=S)N/N=C/c1ccc(OCc2ccccc2)cc1,IMR-32,item: GPX3,,"100 µg/mL, 24 h",higher = more activity,glutathione peroxidase activity (OD450),0.053 a.u.
CCOC(=O)C1(Cc2ccccc2)Oc2cc(F)ccc2N(Cc2ccccc2)C1=O (centres unmarked),HaCaT,"cell growth or viability, CCK-8",,"100 µM, 72 h",,inhibition,0.65%
NC(=S)N/N=C/c1ccc(OCc2cccc(F)c2)cc1,IMR-32,item: GPX3,,"50 µg/mL, 24 h",higher = more activity,glutathione peroxidase activity (OD450),0.092 a.u.
COc1ccccc1-c1n[nH]c2nc(N[C@H]3CC[C@H](NS(=O)(=O)CC(C)C)CC3)ncc12,,"bead binding, competition bead pull-down, item: LINJ.03.0360",Leishmania donovani extract,10 µM,baseline: vehicle,relative abundance,0.83
